Literature values, collected from citations in different studies.
Lines come from different studies, so protocols differ. ± gives the spread as reported.
B1: CCL1; sequence looked up; chain KSMQVPFSRCCFSFAEQEIPLRAILCYRNTSSICSNEGLIFKLKRGKEACALDTVGWVQRHRKMLRHCPSKRK
Chain of UniProt P12821 (whole entry, looked up): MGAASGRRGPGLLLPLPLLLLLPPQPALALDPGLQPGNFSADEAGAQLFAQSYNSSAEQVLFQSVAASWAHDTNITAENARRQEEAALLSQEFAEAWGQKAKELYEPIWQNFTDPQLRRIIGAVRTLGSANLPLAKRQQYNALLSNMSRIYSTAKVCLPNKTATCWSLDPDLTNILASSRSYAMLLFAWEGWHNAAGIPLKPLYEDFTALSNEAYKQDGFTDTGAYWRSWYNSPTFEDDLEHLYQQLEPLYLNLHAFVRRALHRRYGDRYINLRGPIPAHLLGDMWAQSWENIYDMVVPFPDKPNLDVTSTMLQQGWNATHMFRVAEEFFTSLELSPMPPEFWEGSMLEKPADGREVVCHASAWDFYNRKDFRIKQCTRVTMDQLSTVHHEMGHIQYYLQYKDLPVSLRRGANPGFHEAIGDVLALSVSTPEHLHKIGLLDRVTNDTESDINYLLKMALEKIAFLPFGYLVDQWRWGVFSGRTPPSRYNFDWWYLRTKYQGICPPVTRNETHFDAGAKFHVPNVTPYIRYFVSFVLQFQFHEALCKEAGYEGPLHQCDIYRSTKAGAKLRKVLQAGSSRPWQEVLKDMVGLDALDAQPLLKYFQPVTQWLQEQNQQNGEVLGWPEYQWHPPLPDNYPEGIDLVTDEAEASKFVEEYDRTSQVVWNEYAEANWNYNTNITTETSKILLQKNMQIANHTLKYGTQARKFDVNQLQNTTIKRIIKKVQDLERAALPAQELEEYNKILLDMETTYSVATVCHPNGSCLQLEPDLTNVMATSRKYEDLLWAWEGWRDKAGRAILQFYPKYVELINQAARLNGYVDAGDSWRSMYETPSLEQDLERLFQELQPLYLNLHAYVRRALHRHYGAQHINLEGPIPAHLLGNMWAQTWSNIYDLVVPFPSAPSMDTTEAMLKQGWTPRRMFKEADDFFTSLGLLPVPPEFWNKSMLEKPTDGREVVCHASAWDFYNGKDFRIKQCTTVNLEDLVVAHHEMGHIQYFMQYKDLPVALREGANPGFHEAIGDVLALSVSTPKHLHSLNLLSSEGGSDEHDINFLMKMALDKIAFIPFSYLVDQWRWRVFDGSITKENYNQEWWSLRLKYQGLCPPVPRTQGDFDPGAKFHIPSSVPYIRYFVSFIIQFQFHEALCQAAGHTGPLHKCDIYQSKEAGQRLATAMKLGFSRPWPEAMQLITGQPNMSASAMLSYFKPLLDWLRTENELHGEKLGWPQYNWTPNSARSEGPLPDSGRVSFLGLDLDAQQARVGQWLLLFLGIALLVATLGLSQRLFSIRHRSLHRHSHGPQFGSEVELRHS
Chain of UniProt P04191 (whole entry, looked up): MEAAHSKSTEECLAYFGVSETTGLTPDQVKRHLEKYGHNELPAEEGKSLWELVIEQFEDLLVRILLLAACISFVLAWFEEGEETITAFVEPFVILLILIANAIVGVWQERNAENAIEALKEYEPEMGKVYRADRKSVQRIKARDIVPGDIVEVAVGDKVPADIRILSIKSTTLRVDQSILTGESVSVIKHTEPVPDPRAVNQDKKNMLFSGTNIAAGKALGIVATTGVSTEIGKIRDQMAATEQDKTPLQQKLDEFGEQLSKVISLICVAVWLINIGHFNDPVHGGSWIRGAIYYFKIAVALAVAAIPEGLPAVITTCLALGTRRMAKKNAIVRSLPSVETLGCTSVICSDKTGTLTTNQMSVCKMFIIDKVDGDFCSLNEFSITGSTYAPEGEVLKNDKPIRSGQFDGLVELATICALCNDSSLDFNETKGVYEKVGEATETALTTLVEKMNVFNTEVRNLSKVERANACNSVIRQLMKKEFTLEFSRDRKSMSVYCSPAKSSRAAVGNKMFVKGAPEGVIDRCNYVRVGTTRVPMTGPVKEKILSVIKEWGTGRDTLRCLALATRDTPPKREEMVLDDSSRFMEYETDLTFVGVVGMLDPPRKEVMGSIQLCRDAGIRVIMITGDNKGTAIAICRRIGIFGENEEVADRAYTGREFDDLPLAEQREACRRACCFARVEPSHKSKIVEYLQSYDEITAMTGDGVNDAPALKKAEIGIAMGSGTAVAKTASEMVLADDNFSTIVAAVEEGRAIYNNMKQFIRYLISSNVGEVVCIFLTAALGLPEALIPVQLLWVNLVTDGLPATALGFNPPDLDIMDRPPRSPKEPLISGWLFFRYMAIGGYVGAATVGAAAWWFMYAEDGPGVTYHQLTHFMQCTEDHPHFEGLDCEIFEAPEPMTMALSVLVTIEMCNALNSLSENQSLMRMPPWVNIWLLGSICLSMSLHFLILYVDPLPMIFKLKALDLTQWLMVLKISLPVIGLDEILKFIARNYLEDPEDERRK

| Molecule | target or system | test | test system | conditions | scale | endpoint | value |
| --- | --- | --- | --- | --- | --- | --- | --- |
| pegcetacoplan |  |  | cynomolgus monkey | subcutaneous, 9 months daily |  | NOAEL | 7 mg/kg/day |
| B1 (CCL1) | CCR8 L168D mutant | IP accumulation, agonist |  |  |  | EC50 | 12 nM |
| adrenomedullin | AM1 receptor, RAMP2 E101A |  |  |  | reference: wild type | potency decrease | > 10 fold |
| dulaglutide |  |  | human | once weekly dosing |  | t1/2 | ~120 h |
| LKYKA | ACE (Homo sapiens, UniProt P12821) | enzyme activity, inhibitor | peptide |  |  | IC50 | 54.7 nM |
| indirubin-3'-monoxime |  | regression of existing vessels | zebrafish embryos |  |  | IC50 | > 30000 nM |
| sarcolipin | ATP2A1 (Oryctolagus cuniculus, UniProt P04191) | enzyme activity |  |  |  | Vmax | 2.9 ± 0.1 µmol/min/mg |
| enfortumab vedotin |  |  | monkey |  |  | Vdss | 0.07 to 0.08 L/kg |
